# Experimental data pooled from the literature.
# Numbered parts are unrelated; each lists some results of a single study. Positions count from the first letter of the parent shown.

# Set 1
# Target: Hepatocyte nuclear factor 3-alpha (Foxa1, Mus musculus, UniProt P35582, residues 1-468, full length assumed)
# Method: EMSA with sequencing
# Molecule type: double-stranded DNA, one strand shown
# Medium: in vitro
# Tested at: 10 and 20 nM
# Notes: whole designed probe, mean of two concentrations, ends assumed
# Reference: negative control set to 0
# Direction: higher = stronger binding
# Target sequence (chain): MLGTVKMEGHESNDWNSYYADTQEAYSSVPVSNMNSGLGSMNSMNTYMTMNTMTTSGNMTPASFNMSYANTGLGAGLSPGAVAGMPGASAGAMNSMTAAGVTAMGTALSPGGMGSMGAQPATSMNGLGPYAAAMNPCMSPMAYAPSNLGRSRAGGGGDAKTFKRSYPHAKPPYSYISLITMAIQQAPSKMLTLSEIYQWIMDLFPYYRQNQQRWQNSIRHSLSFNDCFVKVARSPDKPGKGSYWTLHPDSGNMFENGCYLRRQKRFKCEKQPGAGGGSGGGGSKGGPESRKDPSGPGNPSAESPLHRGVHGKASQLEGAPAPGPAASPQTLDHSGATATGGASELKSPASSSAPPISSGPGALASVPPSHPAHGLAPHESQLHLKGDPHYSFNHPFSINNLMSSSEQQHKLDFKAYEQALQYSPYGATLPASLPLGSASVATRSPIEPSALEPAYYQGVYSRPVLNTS
Oligonucleotide,normalised bound fraction [ratio]
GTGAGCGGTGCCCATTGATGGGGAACAGCAAGGCTTTAAAAGTGAGGTCTTTCAGTTTAGATGCAAAAAGGGTGGTTCTGTTGAGTCAACCCAGCTATTTCACTACATAGATTCGTATTGTAAACACCTAGAATGAGGTAGCTGGAGTGCAAATCTAAATGGCTTGTGACAGTTAAGGAAGTACATAGGCAACAGTTACTGGTTTTCTTGATGCAGCTGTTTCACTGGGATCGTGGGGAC,0.0519
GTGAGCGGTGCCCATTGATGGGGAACGGTTGGACACCCCTGCTTTAATGTATGGAAATAGAGTACTCTGTATATATTCAAAGTACTGTGTGTATATTTGAGTATATTTGAATATTCCAAAGTAATCTAATAACTATGAAAGAATAGTCCTTACATAGCTAACATAAGCTGATCAATAATTAGTTTTTGTTAACCATCTGGTGTATGCTTTCTGTACCAATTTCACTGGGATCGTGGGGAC,0.0978
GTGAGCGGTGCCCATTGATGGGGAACAGCAAGGCTTTAAAAGTGAGGTCTTTCAGTTTAGATGCAAAAAGGGTGGTTCTGTTGAGTCAACCCAGCTATTTCACTACATAGTTTCGTAATGTAAACACCTAGAATGAGGTAGCTGGAGTGCAAATCTAAATGGCTTGTGACAGTTAAGGAAGTACATAGGCAACAGTTACTGGTTTTCTTGATGCAGCTGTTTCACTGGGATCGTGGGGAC,0.243
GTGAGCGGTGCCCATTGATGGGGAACAATATTTCAAACACTACGTACCCCAACTGACATTTGAGTAGCAGTTAAGTTCTTGGAACGTTACGTAACGCTGCCATTTTGATCTAGCTCATTGTAAACAGGATGAAATAGGGCAGTTAAAAGACTAATGGTCAGTGAAATCTACAACAGGAATGGAAAGAATTTTCCCCTTAAAAATTTGGAAATCCTTATTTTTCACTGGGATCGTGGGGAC,-0.0201
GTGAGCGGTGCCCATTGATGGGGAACCTGTTTTGATGATTTAGTAAAAAAAAAACTCTCCAAAATATTAATTTTCCATGTATACTTTCACAATTGTTTCCATATTTGTATATTTCCTGTTATTTACTTAATATTTCTATGTGTACCTACATGTTGGCCTTTGCATTTAAAAGGAAAATATAAATAGAAGCTGTACTTCTTCTAATTCATATGAAAACGATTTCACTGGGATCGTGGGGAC,0.395
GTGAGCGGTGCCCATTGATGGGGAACATCTTCCTTTCCCCCCTTGCCCCACCAGCTCACCTTCCCGGGTTATTTGCAGATAGGAAAATAAATAAAGCCGGCATTCGTTAACCCTCTTCTGGCGCAAACTGCTGTTTGCTCTGGATGAATCATGGTCCTTTGGCGACGCCAGGCTCCGGGAGAGCAAAGCACCGTGTCAGGGCCATGATCCGGGGTGGCCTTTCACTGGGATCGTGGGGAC,0.332
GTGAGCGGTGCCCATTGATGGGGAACATCTTCCCCCTCTTCCTTGCCCCACCAGCTCACCTTCCCGGGTATATTGGAGATAGGAAATTAATATAAGCCGGCATTCGTTAACCCTCTTCACGCGCATACTGCCAAAGTAAACAGATGAATCATGGTCCTTTGGCGACGCCAGGCTCCGGGAGAGCAAAGCACCGTGTCAGGGCCATGATCCGGGGTGGCCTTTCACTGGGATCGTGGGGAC,0.42
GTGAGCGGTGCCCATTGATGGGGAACCTCCAGGGTAGTTGTCCTTCCTGTGGCTGCTCACTGATCCAGGCTACTTTGATCTTGTGACTCAAAGTTCAACAAAATGTGGATGCGTCATTTTATTTACACTTCAATGGCCAGAAGGCCTCATCTTACGAAATCCAGTTGCAAGAAGTTTGGGAAATGTAGCCTTCCATATTTACAGGAATAAATGAAAAACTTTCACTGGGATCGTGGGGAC,0.269

# Set 2
# Target: CCNE1, cyclin fold, Cln2 fusion (human)
# Method: yeast growth competition, sequencing
# Medium: yeast
# Notes: strong parent motif
# Reference: not given
# Direction: higher = stronger binding
# Starting sequence: RBL2 docking peptide (human); STTRRRLFVENDS; partner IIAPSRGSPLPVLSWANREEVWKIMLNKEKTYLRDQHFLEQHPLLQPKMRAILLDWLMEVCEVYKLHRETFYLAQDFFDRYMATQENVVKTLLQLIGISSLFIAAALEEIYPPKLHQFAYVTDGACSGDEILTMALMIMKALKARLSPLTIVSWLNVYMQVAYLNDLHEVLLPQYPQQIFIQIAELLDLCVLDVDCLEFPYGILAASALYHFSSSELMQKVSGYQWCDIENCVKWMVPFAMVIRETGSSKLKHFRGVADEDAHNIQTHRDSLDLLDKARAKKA
Change,normalised enrichment score
SSTRRRLFVENDS [T2S],5.56
SPTRRRLFVENDS [T2P],4.93
STTRRRLFVENCS [D12C],4.12
STTRRRPFVENDS [L7P],0.158
STTRRRLFVENTS [D12T],4.78
STTRRRRFVENDS [L7R],0.74
STTRRRLAVENDS [F8A],-0.115
SFTRRRLFVENDS [T2F],5.36
STTRRREFVENDS [L7E],0.459
STTRRRLFVENDA [S13A],6.06
STTRRFLFVENDS [R6F],0.993
STTRRRLFVENKS [D12K],3.83
STTGRRLFVENDS [R4G],0.134
STTRRRLFVANDS [E10A],3.21
STTRRRLFVEHDS [N11H],5.16
SETRRRLFVENDS [T2E],5.32
STCRRRLFVENDS [T3C],7.24
STSRRRLFVENDS [T3S],2.59
STTRRHLFVENDS [R6H],0.697
SYTRRRLFVENDS [T2Y],5.5
STTRSRLFVENDS [R5S],0.521
GTTRRRLFVENDS [S1G],5.38

# Set 3
# Target: Sal-like protein 4, full length isoform B (SALL4, Homo sapiens, UniProt Q9UJQ4-2, residues 1-616)
# Method: universal PBM
# Molecule type: double-stranded DNA, one strand shown
# Medium: in vitro
# Tested at: not given
# Notes: 8-mer, flanks averaged, mean of replicates
# Direction: higher = stronger binding
Oligonucleotide,E-score
GAACCTAC,-0.104
CATATTAC,0.393
CAGTTCCA,-0.0371
ATAGAGTA,0.23
ATCGGTAG,0.157
AGTTCTCC,-0.214
CATGCATA,0.282
AGGTATGC,0.156
CCTATTGC,0.0416
CATGCTAG,0.0479
AACCCTGC,-0.208
CCTATGCA,0.175
GTGAGGAA,-0.0764
AGAGCGGG,-0.242
GTACTTGA,0.0589
GGATTTAA,0.135
GCGATAGA,-0.117
AGAGTGAC,-0.163
AACTTCTG,-0.00855
CAGTCTAG,-0.167
ACGCGGGA,-0.127
GGTATCAA,0.0725
ACTCCTAC,-0.0376
AATGATCT,0.207
GGATTGAC,-0.0241

# Set 4
# Target: Interferon regulatory factor 7, full length, phosphomimetic (IRF7, Homo sapiens, UniProt Q92985, residues 1-503, S471D/S472D/S475D/S476D/S477D/S483D/S484D/S487D)
# Method: protein-binding microarray
# Molecule type: double-stranded DNA, one strand shown
# Medium: in vitro
# Tested at: 2200 nM top
# Notes: 60-bp whole probe
# Together with: salmon DNA 0.4 mg/ml
# Reference: random background probes
# Direction: higher = stronger binding
# Shared flanks, not repeated: GCCTAGCAC … GTCTTGATTCGCTTGACGCTGCTG
# Residues (chain): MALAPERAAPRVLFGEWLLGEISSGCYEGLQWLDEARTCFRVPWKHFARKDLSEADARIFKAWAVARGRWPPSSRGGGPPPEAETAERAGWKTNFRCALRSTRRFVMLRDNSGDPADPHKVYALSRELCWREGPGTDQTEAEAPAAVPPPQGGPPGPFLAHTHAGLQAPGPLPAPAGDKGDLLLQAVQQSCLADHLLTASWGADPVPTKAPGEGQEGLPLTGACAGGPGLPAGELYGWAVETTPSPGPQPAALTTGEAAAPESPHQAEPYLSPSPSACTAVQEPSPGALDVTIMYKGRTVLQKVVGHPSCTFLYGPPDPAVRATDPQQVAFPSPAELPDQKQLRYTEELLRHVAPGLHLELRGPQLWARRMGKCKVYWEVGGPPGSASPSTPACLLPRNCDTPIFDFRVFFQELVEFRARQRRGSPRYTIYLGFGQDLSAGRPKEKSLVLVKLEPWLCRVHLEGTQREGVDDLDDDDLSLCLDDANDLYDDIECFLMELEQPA
Oligonucleotide,fitted relative affinity [z-score]
CTCAAGATTCCTCTCACCTCGTGCTAG,0.997
TCATGTTTCCTTCCTCTACTGTGCTAG,3.76
TTTACTTTCTACGTCTGATTGTGCTAG,4.42
TTAGGTTTCGGTTCGGGTTAGTGCTAG,13.1
TTAGATATCGGGTCTGGATTAGTGCTA,0.0395
GTGGCAGGCCCTCGGGCTCCGTGCTAG,-1.44
GACGGTTTTCTTCTCCTGACGTGCTAG,2.01
TTAGATTTCAGACTGGACTAGTGCTAG,-0.152
TCATGTATATCTTCAGCACTGTGCTAG,0.78
TCAATTGTGGGTCTTGCACTGTGCTAG,0.34
GACGGACTGGGTTTCTGGACGTGCTAG,-0.0292
GACCGTCTCGGACTGGGGACGTGCTAG,-0.543
GCCATTATGAGTCTTGAAGAGTGCTAG,0.178
TTAGGTTTCCTCCTCCTTTAGTGCTAG,1.64
GACGATATCAGACTGGGGACGTGCTAG,0.0515
ACTTTTTTTTTTCCCTGAAAGTGCTAG,2.49
TCATATGTCTGTTTTTGACTGTGCTAG,1.48
TCTTGTCTGGATGTGCCTTAGTGCTAG,0.932
GACGGTTCTGGTTTCGGGACGTGCTAG,3.78
TTAGATATCAGTATCAATTAGTGCTAG,0.24
TTAGATATAAGTATCGATTAGTGCTAG,-0.176
GACGGTATCAGGTATCGGGACGTGCTA,-0.201
GACGAACTGGGGTCTCGAGACGTGCTA,-0.0157
CTCCCTTTCTCTCTGTGACAGTGCTAG,3.33
GACGGTATCGACTCTGGGGACGTGCTA,-0.191
